Experimental data collected from several papers.
Parts stem from different laboratories: compare values within a part only.
Chain of UniProt P42336 (whole entry, unmodified, looked up): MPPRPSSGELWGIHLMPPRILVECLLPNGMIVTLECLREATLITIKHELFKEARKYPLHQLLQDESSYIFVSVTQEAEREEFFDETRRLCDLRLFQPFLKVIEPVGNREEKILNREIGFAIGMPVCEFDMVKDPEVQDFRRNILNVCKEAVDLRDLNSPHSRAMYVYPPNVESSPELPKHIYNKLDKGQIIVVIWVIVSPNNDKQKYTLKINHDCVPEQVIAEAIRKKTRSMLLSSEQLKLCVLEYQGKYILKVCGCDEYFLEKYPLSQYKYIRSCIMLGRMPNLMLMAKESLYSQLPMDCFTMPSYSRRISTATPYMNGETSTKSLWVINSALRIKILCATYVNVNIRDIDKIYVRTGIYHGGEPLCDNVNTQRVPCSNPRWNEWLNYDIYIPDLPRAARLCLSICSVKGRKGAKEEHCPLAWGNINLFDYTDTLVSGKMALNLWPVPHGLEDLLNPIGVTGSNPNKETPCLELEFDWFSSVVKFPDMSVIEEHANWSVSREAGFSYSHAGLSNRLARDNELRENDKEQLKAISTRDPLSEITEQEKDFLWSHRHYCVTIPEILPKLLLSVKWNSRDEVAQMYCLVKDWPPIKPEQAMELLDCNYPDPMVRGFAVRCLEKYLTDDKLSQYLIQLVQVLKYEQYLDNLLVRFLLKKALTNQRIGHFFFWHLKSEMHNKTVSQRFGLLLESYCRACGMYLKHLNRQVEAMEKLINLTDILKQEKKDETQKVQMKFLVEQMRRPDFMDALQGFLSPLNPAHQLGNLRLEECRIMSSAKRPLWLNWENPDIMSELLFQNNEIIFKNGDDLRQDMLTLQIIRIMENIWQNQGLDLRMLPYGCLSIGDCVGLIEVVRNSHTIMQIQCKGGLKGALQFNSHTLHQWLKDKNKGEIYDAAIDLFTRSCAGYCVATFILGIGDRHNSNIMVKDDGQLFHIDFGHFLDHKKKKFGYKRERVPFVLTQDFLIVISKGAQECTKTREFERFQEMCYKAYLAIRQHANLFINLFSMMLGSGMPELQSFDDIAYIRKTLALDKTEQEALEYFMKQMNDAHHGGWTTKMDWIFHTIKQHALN
Chain of UniProt Q05397 (whole entry, looked up): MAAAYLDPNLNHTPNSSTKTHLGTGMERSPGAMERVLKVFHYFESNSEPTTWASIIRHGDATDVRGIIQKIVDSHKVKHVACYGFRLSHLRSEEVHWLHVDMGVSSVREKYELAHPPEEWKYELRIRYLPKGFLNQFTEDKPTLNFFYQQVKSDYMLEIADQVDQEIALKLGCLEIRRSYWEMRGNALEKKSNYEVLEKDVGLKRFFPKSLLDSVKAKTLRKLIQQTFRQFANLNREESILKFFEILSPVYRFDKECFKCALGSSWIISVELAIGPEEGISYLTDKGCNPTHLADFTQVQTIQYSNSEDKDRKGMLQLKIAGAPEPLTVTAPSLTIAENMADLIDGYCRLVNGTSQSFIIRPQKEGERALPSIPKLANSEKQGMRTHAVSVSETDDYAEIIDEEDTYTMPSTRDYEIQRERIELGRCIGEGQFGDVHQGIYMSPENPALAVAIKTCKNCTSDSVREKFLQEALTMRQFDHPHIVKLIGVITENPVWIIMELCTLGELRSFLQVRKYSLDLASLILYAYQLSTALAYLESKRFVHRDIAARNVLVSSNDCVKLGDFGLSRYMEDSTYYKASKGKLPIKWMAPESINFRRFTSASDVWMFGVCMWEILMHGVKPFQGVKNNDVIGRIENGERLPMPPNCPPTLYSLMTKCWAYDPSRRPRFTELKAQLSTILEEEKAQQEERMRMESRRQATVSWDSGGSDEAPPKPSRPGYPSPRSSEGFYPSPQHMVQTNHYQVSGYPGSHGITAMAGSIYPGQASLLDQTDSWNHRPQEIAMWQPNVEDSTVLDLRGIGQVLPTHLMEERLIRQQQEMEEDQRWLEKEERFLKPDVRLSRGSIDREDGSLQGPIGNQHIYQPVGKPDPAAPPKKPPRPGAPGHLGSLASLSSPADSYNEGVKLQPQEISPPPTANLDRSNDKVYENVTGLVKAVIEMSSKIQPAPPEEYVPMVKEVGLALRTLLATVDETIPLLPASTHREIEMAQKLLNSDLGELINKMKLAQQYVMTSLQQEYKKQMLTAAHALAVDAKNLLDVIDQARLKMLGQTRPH
Chain of UniProt P22607 (whole entry, unmodified, looked up): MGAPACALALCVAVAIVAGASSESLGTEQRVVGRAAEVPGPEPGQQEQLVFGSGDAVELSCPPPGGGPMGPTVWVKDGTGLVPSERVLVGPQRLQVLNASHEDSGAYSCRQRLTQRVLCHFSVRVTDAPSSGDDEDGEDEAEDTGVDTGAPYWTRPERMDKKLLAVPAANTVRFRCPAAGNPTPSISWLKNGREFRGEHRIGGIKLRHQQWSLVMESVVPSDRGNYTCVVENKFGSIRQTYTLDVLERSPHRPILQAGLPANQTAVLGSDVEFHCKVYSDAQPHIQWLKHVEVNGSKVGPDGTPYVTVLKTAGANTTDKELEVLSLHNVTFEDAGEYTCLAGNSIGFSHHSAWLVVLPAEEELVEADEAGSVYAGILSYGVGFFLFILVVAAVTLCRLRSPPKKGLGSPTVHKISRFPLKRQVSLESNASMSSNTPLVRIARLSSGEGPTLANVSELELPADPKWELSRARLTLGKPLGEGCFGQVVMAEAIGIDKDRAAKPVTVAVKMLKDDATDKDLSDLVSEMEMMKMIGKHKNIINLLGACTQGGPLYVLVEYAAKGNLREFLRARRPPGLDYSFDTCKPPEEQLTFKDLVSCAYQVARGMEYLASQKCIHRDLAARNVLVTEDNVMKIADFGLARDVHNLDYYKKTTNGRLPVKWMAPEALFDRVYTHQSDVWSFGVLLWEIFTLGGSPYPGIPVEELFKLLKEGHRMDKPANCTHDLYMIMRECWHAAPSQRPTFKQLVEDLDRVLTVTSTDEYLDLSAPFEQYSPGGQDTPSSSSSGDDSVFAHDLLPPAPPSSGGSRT
Chain of UniProt Q9UM73 (whole entry, unmodified, looked up): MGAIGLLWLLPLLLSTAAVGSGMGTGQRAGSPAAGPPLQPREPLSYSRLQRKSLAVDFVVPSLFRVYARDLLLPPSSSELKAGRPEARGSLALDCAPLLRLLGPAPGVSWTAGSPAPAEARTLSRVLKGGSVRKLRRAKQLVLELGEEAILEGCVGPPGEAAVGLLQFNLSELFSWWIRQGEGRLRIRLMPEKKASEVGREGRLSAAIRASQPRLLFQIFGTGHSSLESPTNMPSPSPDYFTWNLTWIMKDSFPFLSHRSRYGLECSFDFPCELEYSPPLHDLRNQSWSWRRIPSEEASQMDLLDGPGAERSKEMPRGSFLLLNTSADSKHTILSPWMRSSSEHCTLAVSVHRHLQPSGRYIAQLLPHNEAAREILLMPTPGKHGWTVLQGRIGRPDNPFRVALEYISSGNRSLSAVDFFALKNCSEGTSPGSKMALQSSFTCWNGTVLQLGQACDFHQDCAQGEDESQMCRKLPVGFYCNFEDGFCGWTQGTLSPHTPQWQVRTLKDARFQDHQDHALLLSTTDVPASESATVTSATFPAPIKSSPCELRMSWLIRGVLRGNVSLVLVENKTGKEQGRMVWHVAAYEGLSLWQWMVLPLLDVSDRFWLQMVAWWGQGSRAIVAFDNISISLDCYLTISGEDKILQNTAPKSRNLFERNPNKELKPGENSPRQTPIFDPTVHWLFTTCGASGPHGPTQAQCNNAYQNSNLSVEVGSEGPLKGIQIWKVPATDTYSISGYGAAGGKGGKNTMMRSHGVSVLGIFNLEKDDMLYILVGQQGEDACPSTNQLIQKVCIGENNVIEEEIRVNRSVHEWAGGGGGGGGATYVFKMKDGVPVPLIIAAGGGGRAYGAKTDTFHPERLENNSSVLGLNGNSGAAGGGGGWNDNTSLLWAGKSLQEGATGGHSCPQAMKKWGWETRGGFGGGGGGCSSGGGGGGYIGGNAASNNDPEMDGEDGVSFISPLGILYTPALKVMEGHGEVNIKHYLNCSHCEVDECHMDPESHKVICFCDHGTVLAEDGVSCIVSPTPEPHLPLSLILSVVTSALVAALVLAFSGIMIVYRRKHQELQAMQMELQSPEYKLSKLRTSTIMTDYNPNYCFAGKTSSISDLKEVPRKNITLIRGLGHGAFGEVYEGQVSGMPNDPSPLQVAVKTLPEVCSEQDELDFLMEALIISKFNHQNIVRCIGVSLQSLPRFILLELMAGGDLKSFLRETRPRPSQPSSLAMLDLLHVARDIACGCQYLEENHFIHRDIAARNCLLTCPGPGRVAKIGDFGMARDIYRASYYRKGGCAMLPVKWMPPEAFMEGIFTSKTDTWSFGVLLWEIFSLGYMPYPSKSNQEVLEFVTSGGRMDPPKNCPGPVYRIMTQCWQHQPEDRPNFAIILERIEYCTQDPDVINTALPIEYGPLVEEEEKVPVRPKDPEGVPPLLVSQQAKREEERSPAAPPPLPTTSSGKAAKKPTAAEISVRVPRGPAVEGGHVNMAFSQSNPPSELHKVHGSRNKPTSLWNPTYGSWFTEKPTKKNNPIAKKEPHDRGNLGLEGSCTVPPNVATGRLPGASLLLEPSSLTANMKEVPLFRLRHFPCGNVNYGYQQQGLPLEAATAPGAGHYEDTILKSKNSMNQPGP
Chain of UniProt O15530 (whole entry, looked up): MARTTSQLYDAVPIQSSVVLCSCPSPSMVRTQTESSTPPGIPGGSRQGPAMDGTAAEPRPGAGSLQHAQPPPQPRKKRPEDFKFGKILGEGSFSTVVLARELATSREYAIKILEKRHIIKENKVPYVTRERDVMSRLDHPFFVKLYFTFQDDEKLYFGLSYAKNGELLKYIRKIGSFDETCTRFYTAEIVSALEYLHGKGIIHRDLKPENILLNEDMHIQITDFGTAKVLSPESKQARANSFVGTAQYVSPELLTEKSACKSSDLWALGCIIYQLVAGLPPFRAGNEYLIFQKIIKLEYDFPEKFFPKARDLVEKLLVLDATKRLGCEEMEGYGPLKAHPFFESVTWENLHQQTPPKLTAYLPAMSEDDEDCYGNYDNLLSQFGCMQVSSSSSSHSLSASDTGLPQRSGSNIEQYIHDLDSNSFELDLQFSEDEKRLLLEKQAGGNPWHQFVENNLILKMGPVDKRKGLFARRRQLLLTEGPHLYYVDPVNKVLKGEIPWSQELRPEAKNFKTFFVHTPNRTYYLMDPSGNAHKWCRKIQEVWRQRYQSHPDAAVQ

Series 1
SMILES: O=C(N1CCS(=O)(=O)CC1)N1C[C@H](c2ccc(OC(F)(F)F)cc2)C[C@H](c2nc(C3CC3)no2)C1
Tested at: 1 µM
target | read-out | technique | remaining binding [%]
Glycogen synthase kinase-3 beta (GSK3B, Homo sapiens, UniProt P49841) | cell-free assay | competition with immobilised ligand | 100
Hepatocyte growth factor receptor (MET, Homo sapiens, UniProt P08581, Y1235D) | cell-free assay | competition with immobilised ligand | 100
Calcium/calmodulin-dependent protein kinase type 1B (PNCK, Homo sapiens, UniProt Q6P2M8) | cell-free assay | competition with immobilised ligand | 100
Angiopoietin-1 receptor (TEK, Homo sapiens, UniProt Q02763) | cell-free assay | competition with immobilised ligand | 100
TRAF2 and NCK-interacting protein kinase (TNIK, Homo sapiens, UniProt Q9UKE5) | cell-free assay | competition with immobilised ligand | 75
MAP kinase-activated protein kinase 5 (MAPKAPK5, Homo sapiens, UniProt Q8IW41) | cell-free assay | competition with immobilised ligand | 94
Interleukin-1 receptor-associated kinase 3 (IRAK3, Homo sapiens, UniProt Q9Y616) | cell-free assay | competition with immobilised ligand | 100
Phosphatidylinositol 4,5-bisphosphate 3-kinase catalytic subunit alpha isoform (PIK3CA, Homo sapiens, UniProt P42336, H1047Y) | cell-free assay | competition with immobilised ligand | 100
Phosphatidylinositol 4,5-bisphosphate 3-kinase catalytic subunit alpha isoform (PIK3CA, Homo sapiens, UniProt P42336, E545K) | cell-free assay | competition with immobilised ligand | 90
Myosin-IIIa (MYO3A, Homo sapiens, UniProt Q8NEV4) | binding | competition with immobilised ligand | 100
AP2-associated protein kinase 1 (AAK1, Homo sapiens, UniProt Q2M2I8) | binding | – | 99
Serine/threonine-protein kinase haspin (HASPIN, Homo sapiens, UniProt Q8TF76) | cell-free assay | competition with immobilised ligand | 95
Focal adhesion kinase 1 (PTK2, Homo sapiens, UniProt Q05397) | cell-free assay | competition with immobilised ligand | 93
ALK tyrosine kinase receptor (ALK, Homo sapiens, UniProt Q9UM73, L1196M) | cell-free assay | competition with immobilised ligand | 65
Epidermal growth factor receptor (EGFR, Homo sapiens, UniProt P00533, L858R/T790M) | cell-free assay | competition with immobilised ligand | 59
Calcium/calmodulin-dependent protein kinase kinase 2 (CAMKK2, Homo sapiens, UniProt Q96RR4) | cell-free assay | competition with immobilised ligand | 100
Interleukin-1 receptor-associated kinase 4 (IRAK4, Homo sapiens, UniProt Q9NWZ3) | cell-free assay | competition with immobilised ligand | 80
Cyclin-dependent kinase 2 (CDK2, Homo sapiens, UniProt P24941) | cell-free assay | competition with immobilised ligand | 100
Proto-oncogene tyrosine-protein kinase receptor Ret (RET, Homo sapiens, UniProt P07949) | cell-free assay | competition with immobilised ligand | 93
Dual specificity mitogen-activated protein kinase kinase 7 (MAP2K7, Homo sapiens, UniProt O14733) | cell-free assay | competition with immobilised ligand | 100
Mitogen-activated protein kinase kinase kinase 14 (MAP3K14, Homo sapiens, UniProt Q99558) | cell-free assay | competition with immobilised ligand | 87
Receptor-type tyrosine-protein kinase FLT3 (FLT3, Homo sapiens, UniProt P36888, D835Y) | cell-free assay | competition with immobilised ligand | 100
Epidermal growth factor receptor (EGFR, Homo sapiens, UniProt P00533, G719C) | cell-free assay | competition with immobilised ligand | 97
Fibroblast growth factor receptor 3 (FGFR3, Homo sapiens, UniProt P22607, G697C) | cell-free assay | competition with immobilised ligand | 100

Series 2
Target: Diamine acetyltransferase 1 (Homo sapiens, UniProt P21673)
Action: inhibitor
Tested at: 10 µM
Relative to: control
Target sequence (P21673 1-171): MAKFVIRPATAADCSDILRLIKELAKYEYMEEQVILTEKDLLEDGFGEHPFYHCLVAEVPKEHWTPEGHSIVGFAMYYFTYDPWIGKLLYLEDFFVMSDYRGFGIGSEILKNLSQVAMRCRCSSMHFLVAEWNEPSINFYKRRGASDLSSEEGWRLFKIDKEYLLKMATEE
SMILES | remaining activity [%]
OCc1ccccc1 | 97.7
COC(=O)C1=CO[C@@H](O[C@@H]2O[C@H](CO)[C@@H](O)[C@H](O)[C@H]2O)[C@@H]2C(CO)=C[C@@H](O)[C@H]12 | 99.4
OC[C@H]1O[C@@](CO)(OC[C@@]2(OC[C@@]3(OC[C@@]4(OC[C@@]5(O[C@H]6O[C@H](CO)[C@@H](O)[C@H](O)[C@H]6O)O[C@H](CO)[C@@H](O)[C@@H]5O)O[C@H](CO)[C@@H](O)[C@@H]4O)O[C@H](CO)[C@@H](O)[C@@H]3O)O[C@H](CO)[C@@H](O)[C@@H]2O)[C@@H](O)[C@@H]1O | 109
COc1c2occc2c(OC)c2c(=O)cc(C)oc12 | 103
COc1c(O)c(C)cc2c1C(=O)c1c(O)cccc1C2=O | 87.6
C[C@@H]1O[C@@H](OC[C@H]2O[C@@H](Oc3c(-c4ccc(O)c(O)c4)oc4cc(O)cc(O)c4c3=O)[C@H](O)[C@@H](O)[C@@H]2O)[C@H](O)[C@H](O)[C@H]1O | 100
O=C(/C=C/c1ccc(O[C@@H]2O[C@H](CO)[C@@H](O)[C@H](O)[C@H]2O)cc1)c1ccc(O)cc1O | 110
O=c1oc2ccccc2cc1O | 93.9
CC1(C)CC[C@]2(C(=O)O)CC[C@]3(C)C(=CC[C@@H]4[C@@]5(C)CC[C@H](O)[C@@](C)(CO)[C@@H]5CC[C@]43C)[C@@H]2C1 | 97.9
CC(=O)OCC=C(C)CCC=C(C)CCC=C(C)C | 102
O=C(O)c1ccc(=O)oc1 | 90.7
O=Cc1ccc(O)cc1 | 106

Series 3
SMILES: CC(C)n1cnc(-c2ccc(F)cc2)c1-c1ncc(C(=O)Nc2ccc(N3CCN(C)CC3)cc2)[nH]1
Technique: phase 2a trial
Host: idiopathic pulmonary fibrosis patients
dose | setting | patients with gastritis
60 mg once daily | adverse event grade 3 | 0%
30 mg once daily | adverse event grade 4 | 0%
30 mg once daily | adverse event grade 3 | 0%
dose not given | adverse event grade 4, all dose arms pooled | 0%
60 mg once daily | adverse event grade 5 | 0%
60 mg once daily | adverse event grade 1 | 0%
60 mg once daily | adverse event grade 2 | 0%

Series 4
SMILES: FC(F)(F)c1ccc(/C=C/c2nc(COc3ccc(CCCCn4ccnn4)cc3)co2)cc1
Read-out: enzyme activity
Action: inhibitor
Tested at: 0.5 µM
Relative to: control
target | remaining activity [%]
Tyrosine-protein kinase Blk (BLK, Homo sapiens, UniProt P51451) | 102
Serine/threonine-protein kinase 17A (STK17A, Homo sapiens, UniProt Q9UEE5) | 103
Serine/threonine-protein kinase WNK3 (WNK3, Homo sapiens, UniProt Q9BYP7) | 98.5
MAP kinase-activated protein kinase 3 (MAPKAPK3, Homo sapiens, UniProt Q16644) | 98.9
Tyrosine-protein kinase receptor UFO (AXL, Homo sapiens, UniProt P30530) | 101
Calcium/calmodulin-dependent protein kinase type II subunit beta (CAMK2B, Homo sapiens, UniProt Q13554) | 99.3
Homeodomain-interacting protein kinase 4 (HIPK4, Homo sapiens, UniProt Q8NE63) | 105
Ribosomal protein S6 kinase alpha-5 (RPS6KA5, Homo sapiens, UniProt O75582) | 111
3-phosphoinositide-dependent protein kinase 1 (PDPK1, Homo sapiens, UniProt O15530) | 104
Cyclin-dependent kinase 4, with cyclin D3 (CDK4, Homo sapiens, UniProt P11802) | 119
Ephrin type-A receptor 4 (EPHA4, Homo sapiens, UniProt P54764) | 98.8

Repeated from above (series 1):
target | read-out | technique | remaining binding [%]
ALK tyrosine kinase receptor (ALK, Homo sapiens, UniProt Q9UM73, L1196M) | cell-free assay | competition with immobilised ligand | 65
Epidermal growth factor receptor (EGFR, Homo sapiens, UniProt P00533, L858R/T790M) | cell-free assay | competition with immobilised ligand | 59
Calcium/calmodulin-dependent protein kinase kinase 2 (CAMKK2, Homo sapiens, UniProt Q96RR4) | cell-free assay | competition with immobilised ligand | 100
